Experimental data gathered from unrelated publications.
Compare with care: the assays were run in different laboratories. ± marks the error that the study gave.

COc1ccc2c(c1)CN(Cc1ccc(C(=O)O)cc1)CCS2  forelimb grip strength (exercised mdx mice; 10 mg/kg, 1 weeks): 0.16 ± 0.005 kgf
N#Cc1ccc2c(c1)[C@H]1CCCN(C(=O)c3ccc4[nH]cnc4c3)[C@H]1C2  total urinary corticosteroids (human, urine; 40 mg, 336 h, day 14 over day -1; baseline: placebo and baseline): 148 % change
CCCCC1C(=O)N(c2ccccc2)N(c2ccccc2)C1=O  inhibition (carrageenan paw oedema; albino rat; oral, 25 mg/kg, 3 h): 26.5%
Cc1cc(C)c(CNC(=O)c2cc(Cl)c3c(c2C)O[C@@](C)([C@H]2CC[C@H](N(C)C)CC2)O3)c(=O)[nH]1  best response not evaluable (IWG criteria; relapsed/refractory PTCL patients; dose not given): 2%
O=C(O)C1=CC(=C(c2ccc(O)c(C(=O)O)c2)c2ccc(O)c(C(=O)O)c2)C=CC1=O  PD-1 expression (flow cytometry; C57BL/6J mouse MC-38 tumour, tumour-infiltrating CD8+ T cells; peritumoral, dose not given, 2 cycles; baseline: vehicle): no effect
CN[C@@H](C)C(=O)N[C@H]1CN(S(=O)(=O)c2cccc(S(=O)(=O)N3CC[C@H]4CC[C@@H](C(=O)NC(c5ccccc5)c5ccccc5)N4C(=O)[C@@H](NC(=O)[C@H](C)NC)C3)c2)CC[C@H]2CC[C@@H](C(=O)NC(c3ccccc3)c3ccccc3)N2C1=O  best response progressive disease (RECIST 1.1; advanced pancreatic cancer patients; dose not given, no prior therapy, added: AG): 0%
COc1ccc(F)cc1C(=O)NCc1ccc(-c2nn([C@@H](C)C(F)(F)F)c(N)c2C(N)=O)cc1  best overall response CR (relapsed/refractory CLL patients; dose not given, patients with longitudinal samples): 2%
N#Cc1ccc2c(-c3ccncc3)c(-c3ccc(F)cc3)nn2c1  log2 fold change (kinase binding, competitor, MIB/MS competition, item: IKS1; Candida albicans cell lysate; 10 µM; baseline: DMSO): -0.355
CC(C)NCC(O)c1ccc(O)c(O)c1 (stereo not shown)  sarcomere length (ventricular cardiomyocytes, C57BL/6 mouse; dose not given, 0.608 s): 1.69 µm
O=C(NO)c1ccc(CN(c2cnccn2)c2cnccn2)cc1  plasma IL-10 level (human; dose not given, patients, paired sample, pre-treatment on A): no effect
Cn1cc(-c2ccc(-c3cncc(Cl)c3N3CCC4(CCNC4=O)CC3)cc2)cn1  log2 fold change (COLO 205; gene expression, microarray, item: CAPG mRNA; concentration not given, 6 h; baseline: untreated cells): 2.03
Cc1cc(C)c(CNC(=O)c2cc(Cl)c3c(c2C)O[C@@](C)([C@H]2CC[C@H](N(C)C)CC2)O3)c(=O)[nH]1  best overall response NE (relapsed/refractory NHL patients, total incl. ATLL and CTCL; oral, dose not given): 5%
N#Cc1ccc2c(c1)[C@H]1CCCN(C(=O)c3ccc4[nH]cnc4c3)[C@H]1C2  plasma level (item: androstenedione; human male, Phase II trial; oral, 240 mg once daily, last treatment, HPA axis, mean): 8.78 nmol/L
OC(CCN1CCCCC1)(c1ccccc1)C1CC2C=CC1C2 (stereo not shown)  EEG Alpha1-power Pz-O1 (resting-state EEG; healthy elderly humans; oral, 2 mg, eyes closed, LS mean): 15.9 µV²
C[C@@H](NC(=O)N1C(=O)[C@H](Cc2ccnc(N)c2)[C@H]1C(=O)O)C1CCCCC1  time to maximum prothrombin time (human, plasma; continuous intravenous infusion, 1.0 mg/kg/h, days 1 to 6 of 5-day infusion, median): 120 h
NC(=O)c1cnc2[nH]ccc2c1N[C@@H]1[C@@H]2CC3C[C@H]1C[C@@](O)(C3)C2  percent change (CD8+ effector memory T cells, flow cytometry; Japanese humans, peripheral blood; 20 mg single dose; baseline: baseline): 0.03%
C[C@@H](O)CCOC(=O)C[C@@H](C)O  metabolite level (item: C12:1 acylcarnitine; human, plasma; 60 min, log2-transformed values): -3.87 ± 0.68 µmol/L
Cc1ccc(C(=O)OCc2ccc([C@@H](CN)C(=O)Nc3ccc4cnccc4c3)cc2)c(C)c1  IOP (tonometry; Macaca cyclopis, ocular normotensive; ocular, 0.02%, 52 h): 14.3 mmHg
CC(=O)O[C@@]12CO[C@@H]1C[C@H](O)[C@@]1(C)C(=O)[C@H](O)C3=C(C)[C@@H](OC(=O)[C@H](O)[C@@H](NC(=O)OC(C)(C)C)c4ccccc4)C[C@@](O)([C@@H](OC(=O)c4ccccc4)[C@H]21)C3(C)C  full-length AR protein level (Western blot; male NRG mouse, CWR22Rv1 xenograft, tumour; dose not given, day 16): decreased
